Measured values pooled from the literature.
Compare with care: the assays were run in different laboratories. Values joined by “and” are separate records of one study, mostly repeats; a detail may differ.
Target: Mitogen-activated protein kinase kinase kinase 4 (MAP3K4, Homo sapiens, UniProt Q9Y6R4)

COc1cc(Nc2nccc(-c3cnn4nc(OC)ccc34)n2)cc(C(F)(F)F)c1
remaining binding (binding, competition with immobilised ligand; 1 µM): 97%

C=C1CCCCCCCCCC(CO)C1=O (stereo not drawn)
remaining binding (cell-free assay, competition with immobilised ligand; 10 µM): 87%

C=CC(=O)N1CCc2ccc(-n3c(=O)ccc4cnc5ccc(-c6cnn(C)c6)cc5c43)cc21
remaining binding (KINOMEscan; 1 µM; relative to: DMSO control): 100%

CNC1C[S+]2CC[S+]3CC[S+](C1)[Ru-4]321([N]=C=S)[n]2c3ccc(OC)cc3c3c4c(c5cc(F)c[n+]1c5c32)C(=O)NC4=O (stereo not drawn)
remaining binding (KinomeScan; 0.1 µM; relative to: untreated): 100%

CNC(=O)C1CCN(c2cc(C)c(F)cc2NC(=O)c2ccc(-c3cc(O)ccc3C)c(C)c2)CC1
remaining binding (binding, competition with immobilised ligand; 1 µM): 82%

CC(=O)N1c2ccc(-c3ccc(CNC(=O)c4cn5cc(-c6cnc(N)nc6)nc(N6CCOCC6)c5n4)cc3)cc2CC[C@@H]1C
remaining binding (KINOMEscan; 10 µM): 98%

CCN1CCN(Cc2ccc(C(=O)Nc3ccc(C)c(NCc4cnc5[nH]ccc5c4OC)c3)cc2C(F)(F)F)CC1
remaining binding (binding, competition with immobilised ligand; 1 µM): 95%

CC(C)=CC1OC(C)(C)C2C=C3C(=O)C(Cl)=CC(O)C3C3C(O)C4OC4C(=O)C132 (stereo not drawn)
remaining binding (cell-free assay, competition with immobilised ligand; 10 µM): 91%

CNS(=O)(=O)Nc1nccc(Cc2c(C)c3ccc(Oc4ncccc4F)cc3oc2=O)c1F
remaining binding (binding, competition with immobilised ligand; 10 µM): 88%

Nc1ncc2c(n1)-c1c([nH]c3ccc(C4=CCOCC4)cc13)CCC2
remaining binding (binding, competition with immobilised ligand; 1 µM): 100%

N[C@H]1CC[C@H](Nc2nccc(-c3cccnc3Oc3ccc(NC(=O)NC4CC4)c4ccccc34)n2)CC1
log2 LFQ intensity (kinobead competition pulldown; HEK293/HCT116 lysate mixture; 10 µM, 1 h, 4 °C; lower = stronger competition): 20.9 and 20.1 and 19.4 and 18.3

Cn1cc(-c2cnc3ccc(NC(=O)Nc4ccc5sccc5c4)cc3n2)cn1
inhibition (kinase binding, KiNativ profiling, measured: Lys1 peptide; PANC-1 lysate; 2.5 µM): 4.7%

COc1ccc(NC(=O)Nc2ccc3c(c2)C(=O)N(C(C)CO)CC(C)C(CN(C)Cc2ccc4c(c2)OCO4)O3)cc1 (stereo not drawn)
remaining binding (binding, competition with immobilised ligand; 10 µM): 86%

COc1c(Cl)cccc1Nc1c(-c2ccncc2C#C[C@@]2(C)CCCN2C(=O)/C=C/CN(C)C)[nH]c2c1C(=O)NCC2
remaining binding (binding, competition with immobilised ligand; 3 µM): 73%

CN1CCN(Cc2ccc(NC(=O)c3cccc(C#Cc4cnc(N)c5ncccc45)c3)cc2C(F)(F)F)CC1
remaining binding (cell-free assay, competition with immobilised ligand; 0.5 µM): 100%

Cc1ccc(-c2c(/C=C(\C#N)C(=O)NC(C)C)n(CCCO)c3ncnc(N)c23)cc1
remaining binding (cell-free assay, competition with immobilised ligand; 1 µM): 99%

C=CC(=O)N1CCCC(n2c(=O)c3ncccc3n(Cc3ccc(Oc4ccccc4)cc3)c2=O)C1 (stereo not drawn)
remaining binding (cell-free assay, competition with immobilised ligand; 1 µM): 90%

Cc1cnc2nc1Nc1cccc(c1)COC/C=C/COCc1cc(ccc1OCCN1CCOCC1)N2
remaining binding (binding; 0.1 µM): 100%
